Measured values pooled from the literature.
Each numbered part is a random draw from the data of one study; scales do not carry over between parts. Substitutions count along the parent as printed.

Block 1 — technique: RNA Bind-n-Seq; molecule type: RNA; medium: in vitro; concentration: 365 nM; relative to: no-protein control; direction: higher = stronger binding
Target: RNA binding protein fox-1 homolog 2, RRM domain, GST-SBP tag (RBFOX2, Homo sapiens, UniProt O43251-10, residues 100-194)
Notes: natural RNA segment, single round, ends assumed
Shared flanks, not repeated: GGGAGUUCUACAGUCCGACGAUC … UGGAAUUCUCGGGUGCCAA
Target sequence (chain): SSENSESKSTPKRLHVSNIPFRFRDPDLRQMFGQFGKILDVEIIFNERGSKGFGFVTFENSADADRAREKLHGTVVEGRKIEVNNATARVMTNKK
`UAUUUUUUUGAUGGCUAAGCUGUUGCUGACACUGAAAAUAAACUAGGGUUUGGCCUGCCCUAUUUCUAGUGUUGCUUCUCCUUUCCUAGGGACAGUGUGUGUGUGUGUGU` — result for “RBNS enrichment (R)”: 0.752.
For `AUGAAGAGUGGGAAGGCGGCCUAGGCUCCAUGGGCCACUAUGAGAAAUAGCCUCUCUUUCCUGGGAACCCUCUGUGGUCCUCUCUAAAAGACCCAGAUAUACUGUUAUGG`, “RBNS enrichment (R)” read 0.252.
For `UUGCUGCUCCAACCCAUAGCACGCUUCCUACUGCACACACAUGUUUUAACCAACUGUGCCUCCCUACAUAUGACUCAUAUGAAGAGGUGCACAGGAUGCUACAGCUGGCC`, “RBNS enrichment (R)” read 0.41.
`CUCCGAGAGAAGCACGCCAACCUUAACAUCCCCUACAGCAUCUUGGUGCUUCACACACCAUUUAGGAGGCCACCCUAACGAGGCAAGAGGACAUGGGGGUGUGCAGAAGU` — result for “RBNS enrichment (R)”: 2.33.
For `AACUCGGUUAACAAAAGCCACUGGUAACUGAAGGUAUUUAAGCUAGGGUCAUUUGAAAGCUUCAGCCUCAGAAUGUGACCUUUAGUCAGGGCUGCAGAUAAAAAUAGGCA`, “RBNS enrichment (R)” read 1.2.
`GCUGCUUGUAUGUUUACAUGAAAUUCUCCCAGGACAGACCACCAACCAUGGACACAGAGACCUUAGGGGCUGGGCUUCUCUCCGCACAUGGAGAACAGGAGCCGGGCCCU`: “RBNS enrichment (R)” 0.431.
`AGCCCUCGUCCUCUUUCUGUGAUCCGAUUGAGGAUUUUUUCCUCCUUCAAGUUAAUUUAAACAACUGCAGAGAUGUGUUUGUAGAGCACUUAGAGGUCUGGGGCUGGAAG` — result for “RBNS enrichment (R)”: 0.49.
`GUGAUGGUUUAAAUCAAUUAAGUGGCAUUGGAAACCUAGGGUUUCCUUUUGAUUAAGAGCCUUUUUUGUUUCUGCUCUUUGUCAGCUUUCAGGGGAGAAGGAGGCCACUG`: “RBNS enrichment (R)” 0.792.
`UGCUAGGUUAUGGAAGAUGUAAAAUAUUCAACUUUUUCCUCCUUUUUUUGGACUUUGUAUUUUACUGCAUGUUUUCUUCAUUUUUAAUCAAUAAAGAGUAAAUUGUCCUU` — result for “RBNS enrichment (R)”: 50.7.
Under “RBNS enrichment (R)”, `UCACCAUCGGUUCCCUGGCCUCCCUCCGUGGUCCAGCACUGGCCCCAGUAUGCUGUGUAUGCAGCAGGGACUCUUUUCCCCACAUGCCAGGAUGACUUGGAUCUGGGAAG` is recorded as 0.318.
`CAUCCAUCAGUCUCCUCACUGCUCCUGUGCGCAGGGCUGUCCCUCCCACACUCCCUUCCAGGCCGUGGCCUUCGCUUCCUCAUUAGAAUCAGGAGAGUGAGGCACAGUGU`: “RBNS enrichment (R)” 0.355.
`GCUGGUCACCGCAUAUCCUUGCCUUCCUUUGGAAUUCUCUUAAGGGAAAGGAAUUUUGCACUUAGCCAUGGUCGGGUUGGAAGCAAAGCCUUGGGCUUUUCCUGUCCCUA` — result for “RBNS enrichment (R)”: 0.227.

Block 2 — target: CCND3, cyclin fold, Cln2 fusion (human); technique: yeast growth competition, sequencing; medium: yeast; notes: weak parent motif; relative to: not given; direction: higher = stronger binding
Parent: MASTL docking peptide (human); PMIAKNLMCELDE
Under “normalised enrichment score”, `PMIAKDLMCELDE [N6D]` is recorded as -0.0894.
`PAIAKNLMCELDE [M2A]`: “normalised enrichment score” -0.026.
`PMIAKVLMCELDE [N6V]` — result for “normalised enrichment score”: 0.117.
`PMIAKNLSCELDE [M8S]` — result for “normalised enrichment score”: -0.0436.
`PMIAKNLKCELDE [M8K]`: “normalised enrichment score” 0.0111.
`PMRAKNLMCELDE [I3R]` — result for “normalised enrichment score”: 0.0298.
For `PMIAKNLMFELDE [C9F]`, “normalised enrichment score” read -0.0436.
`PMIAKNLMSELDE [C9S]` — result for “normalised enrichment score”: -0.202.
Under “normalised enrichment score”, `PMIFKNLMCELDE [A4F]` is recorded as 0.0713.
`PMIAKNLICELDE [M8I]`: “normalised enrichment score” 0.131.
`PMIAKNLMCELQE [D12Q]`: “normalised enrichment score” -0.0239.
`PMIAKHLMCELDE [N6H]`: “normalised enrichment score” -0.153.
Under “normalised enrichment score”, `PMPAKNLMCELDE [I3P]` is recorded as -0.162.
For `PMIAKNLMCEKDE [L11K]`, “normalised enrichment score” read -0.0806.
For `PMIAKNLMCEADE [L11A]`, “normalised enrichment score” read 0.0128.
`PMIAKNLMCTLDE [E10T]` — result for “normalised enrichment score”: -0.149.
For `PMIAKNFMCELDE [L7F]`, “normalised enrichment score” read -0.039.
`PRIAKNLMCELDE [M2R]` — result for “normalised enrichment score”: 0.106.
`PMIASNLMCELDE [K5S]`: “normalised enrichment score” -0.315.
For `PMIAKNLMCMLDE [E10M]`, “normalised enrichment score” read -0.0113.
Under “normalised enrichment score”, `PMIAKNTMCELDE [L7T]` is recorded as -0.293.
For `PMICKNLMCELDE [A4C]`, “normalised enrichment score” read -0.296.
`PMIAKNYMCELDE [L7Y]` — result for “normalised enrichment score”: 0.0843.
Under “normalised enrichment score”, `PMITKNLMCELDE [A4T]` is recorded as 0.0625.
`PMIAKNLMCEGDE [L11G]` — result for “normalised enrichment score”: 0.0635.

Block 3 — technique: protein binding microarray; molecule type: double-stranded DNA, one strand shown; medium: in vitro; concentration: not given; relative to: not given; direction: higher = stronger binding
Target: Histone acetyltransferase KAT6A, winged helix 2, GST fusion (KAT6A, Homo sapiens, UniProt Q92794, residues 85-181)
Notes: 8-mer, flanks averaged, mean of 2 arrays, mostly near background
Residues (chain): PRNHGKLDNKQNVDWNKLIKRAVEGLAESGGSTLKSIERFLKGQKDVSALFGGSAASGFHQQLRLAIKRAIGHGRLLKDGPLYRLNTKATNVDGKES
With `ATGGAGCC` the E-score was -0.153.
With `ATCGGAAC` the E-score was -0.0862.
For `CATGTTAG`, the E-score was -0.104.
`TAATGGAA` has an E-score of 0.0367.
For `ATTGGTAA`, the E-score was -0.0177.
With `CATCGCGG` the E-score was 0.21.
For `CCCCGTCA`, the E-score was 0.136.
`CAGTAGGC` has an E-score of 0.0121.
`GACTTCCA` has an E-score of -0.206.
`CGCTAGCC` has an E-score of -0.0662.
`AAGACGGG` gave an E-score of 0.0508.
`ATATGGCC` has an E-score of -0.0749.
For `GCGTAAGC`, the E-score was 0.176.
`AGTATACT` gave an E-score of -0.0504.
With `TAGTCAGA` the E-score was -0.0613.
For `AGAATAAT`, the E-score was 0.0273.
`GTCCTCAC` gave an E-score of -0.0227.
For `CAAATGCA`, the E-score was -0.0172.
`CCCAAACA` gave an E-score of 0.168.
With `AGAATTTG` the E-score was 0.0341.

Block 4 — technique: DHFR PCA, deep sequencing; medium: yeast; added: (+)-ABA 0.39 µM; relative to: wild-type fitted maximum; direction: higher = stronger binding
Target: ABI1, truncated, D143A, DHFR fusion (Arabidopsis thaliana)
Notes: methotrexate growth selection, single substitutions
Parent: PYL1, truncated, DHFR fusion (Arabidopsis thaliana); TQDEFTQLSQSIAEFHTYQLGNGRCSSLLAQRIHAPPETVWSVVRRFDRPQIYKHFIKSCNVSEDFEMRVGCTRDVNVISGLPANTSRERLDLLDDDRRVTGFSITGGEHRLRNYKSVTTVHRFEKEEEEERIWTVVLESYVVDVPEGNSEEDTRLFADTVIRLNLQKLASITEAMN; partner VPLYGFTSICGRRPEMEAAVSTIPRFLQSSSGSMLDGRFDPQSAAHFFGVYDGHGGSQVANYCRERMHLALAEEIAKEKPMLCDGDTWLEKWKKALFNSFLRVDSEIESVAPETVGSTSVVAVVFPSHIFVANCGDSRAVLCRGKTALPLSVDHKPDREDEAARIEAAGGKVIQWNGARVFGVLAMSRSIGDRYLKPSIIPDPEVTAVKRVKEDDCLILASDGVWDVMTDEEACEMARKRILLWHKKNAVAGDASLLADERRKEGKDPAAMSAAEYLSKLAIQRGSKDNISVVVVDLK
Under “relative binding score”, `G108F` is recorded as -10.3%.
For `A13K`, “relative binding score” read 56.4%.
`E151Y`: “relative binding score” 1.45%.
Under “relative binding score”, `F5M` is recorded as 55.7%.
`R88A` — result for “relative binding score”: 12.6%.
`L156Y` — result for “relative binding score”: -12.2%.
Under “relative binding score”, `G81M` is recorded as 8.82%.
For `T73P`, “relative binding score” read -5.96%.
For `E151D`, “relative binding score” read 15%.
`Q51W`: “relative binding score” -11.3%.
`L28G` — result for “relative binding score”: -3.56%.
`R99A` — result for “relative binding score”: 2.17%.
Under “relative binding score”, `E130S` is recorded as 69.4%.
Under “relative binding score”, `D97Q` is recorded as 51.8%.
`E67L` — result for “relative binding score”: 20.3%.

For quick reference, copied from above (block 1):
For `UUGCUGCUCCAACCCAUAGCACGCUUCCUACUGCACACACAUGUUUUAACCAACUGUGCCUCCCUACAUAUGACUCAUAUGAAGAGGUGCACAGGAUGCUACAGCUGGCC`, “RBNS enrichment (R)” read 0.41.
For `AUGAAGAGUGGGAAGGCGGCCUAGGCUCCAUGGGCCACUAUGAGAAAUAGCCUCUCUUUCCUGGGAACCCUCUGUGGUCCUCUCUAAAAGACCCAGAUAUACUGUUAUGG`, “RBNS enrichment (R)” read 0.252.
`CUCCGAGAGAAGCACGCCAACCUUAACAUCCCCUACAGCAUCUUGGUGCUUCACACACCAUUUAGGAGGCCACCCUAACGAGGCAAGAGGACAUGGGGGUGUGCAGAAGU` — result for “RBNS enrichment (R)”: 2.33.
`UAUUUUUUUGAUGGCUAAGCUGUUGCUGACACUGAAAAUAAACUAGGGUUUGGCCUGCCCUAUUUCUAGUGUUGCUUCUCCUUUCCUAGGGACAGUGUGUGUGUGUGUGU` — result for “RBNS enrichment (R)”: 0.752.
`UGCUAGGUUAUGGAAGAUGUAAAAUAUUCAACUUUUUCCUCCUUUUUUUGGACUUUGUAUUUUACUGCAUGUUUUCUUCAUUUUUAAUCAAUAAAGAGUAAAUUGUCCUU` — result for “RBNS enrichment (R)”: 50.7.
